Measured values collected from several papers.
Protocols differ between the studies behind these lines.
Organism: Escherichia coli

CC[C@H](C)[C@H](NC(=O)[C@@H](CCCNC(=N)N)NC(=O)[C@H](CCCNC(=N)N)NC(=O)[C@H](CC(N)=O)NC(=O)[C@H](Cc1c[nH]c2ccccc12)NC(=O)[C@H](CCCNC(=N)N)NC(=O)[C@@H]1CCCN1C(=O)[C@H](CCCNC(=N)N)NC(=O)[C@@H]1CCCN1C(=O)[C@H](CC(C)C)NC(=O)[C@H](Cc1ccc(O)cc1)NC(=O)[C@@H]1CCCN1C(=O)[C@@H]1CCCN1C(=O)[C@H](CCCCN)NC(=O)[C@H](CC(=O)O)NC(=O)[C@@H](N)C(C)C)C(=O)N[C@@H](Cc1ccc(O)cc1)C(=O)N[C@@H](CC(N)=O)C(=O)N[C@H](CCCNC(=N)N)C(N)=O  MIC (broth microdilution; ATCC 25922; 18 h, 37 °C, 25% MHB2): 8 µg/mL
CCCCCCCC(=O)N[C@@H](CCN)C(=O)N[C@H](C(=O)N[C@@H](CCN)C(=O)N[C@H]1CCNC(=O)[C@H]([C@@H](C)O)NC(=O)[C@H](CCN)NC(=O)[C@H](CCN)NC(=O)[C@H](CC(C)C)NC(=O)[C@@H](Cc2ccc(Br)cc2)NC(=O)[C@H](CCN)NC1=O)[C@@H](C)O  MIC (broth microdilution; ATCC 25922): 0.125 to 0.25 µg/mL
CC[C@H](C)[C@H](NC(=O)[C@H](CCCCN)NC(=O)[C@H](Cc1c[nH]c2ccccc12)NC(=O)[C@H](Cc1c[nH]c2ccccc12)NC(=O)[C@H](CCCCN)NC(=O)[C@H](CCCCN)NC(=O)[C@H](CCCCN)NC(=O)[C@H](Cc1c[nH]c2ccccc12)NC(=O)[C@H](CCCCN)NC(=O)[C@H](CCCCN)NC(=O)[C@H](Cc1c[nH]c2ccccc12)NC(=O)[C@H](CCCCN)NC(=O)[C@H](CCCCN)NC(=O)[C@@H](NC(=O)[C@@H](NC(=O)[C@H](CCCCN)NC(=O)[C@@H](N)CCCNC(=N)N)[C@@H](C)CC)[C@@H](C)CC)C(=O)N[C@@H](Cc1c[nH]c2ccccc12)C(=O)N[C@@H](Cc1c[nH]c2ccccc12)C(=O)N[C@@H](CCCCN)C(N)=O  MIC (broth microdilution; 25922): 1.25 µg/mL
CC(=O)N[C@@H](CC(C)C)C(=O)N[C@H]1CSSC[C@@H](C(=O)N2CCC[C@H]2C(N)=O)NC(=O)[C@H]([C@@H](C)O)NC(=O)[C@H](C(C)C)NC(=O)[C@H]([C@@H](C)O)NC(=O)CNC(=O)[C@H](CC(C)C)NC(=O)[C@H](Cc2ccccc2)NC(=O)[C@H](Cc2ccc(O)cc2)NC(=O)[C@H](CC(C)C)NC(=O)[C@H](CCCCN)NC(=O)[C@H](Cc2ccccc2)NC(=O)[C@H](CCCNC(=N)N)NC(=O)[C@H](CCC(N)=O)NC(=O)[C@H](CC(C)C)NC(=O)[C@H](CCCCN)NC(=O)[C@@H]2CCCN2C(=O)[C@H](CCCCN)NC(=O)[C@H](C(C)C)NC(=O)[C@H](CC(N)=O)NC(=O)[C@H](Cc2ccc(O)cc2)NC(=O)[C@H]([C@@H](C)O)NC1=O  MIC (broth dilution; laboratory strain; 24 h): 1.25 to 2.5 µM
CC(=CC(C)CCCCC(=O)O)C1OC2C=CC1OC(=O)C=CC=CC=CC1OC3CC1OC(C=CCC1OC(CC(O)C1C)C(O)C(O)C=CCCC=CC2)C3C (stereo not shown)  MIC (microbial growth; DSM1116): 3.13 µM
CO[C@@H](C(N)=O)[C@H](NC(=O)c1ccc(NC(=O)[C@@H](N)Cc2ccc(O)cc2)cc1)C(=O)Nc1ccc(C(=O)Nc2ccc(C(=O)Nc3ccc(C(=O)O)cc3)c(O)c2OC(C)C)cc1  MIC (empty cosmid vector; 16 h, 37 °C): 1 µg/mL
OB(O)c1ccc(OCc2ccccc2)nc1F  MIC (bacterial growth; TEM-3 ESBL clinical isolate; without cefotaxime): > 2050 µg/mL
CC(C)C[C@@H](NC(=O)[C@H](NC(=O)[C@@H](CCCCN)NC(=O)[C@@H](CCCCN)NC(=O)[C@@H](CC(C)C)NC(=O)[C@@H](Cc1c[nH]c2ccccc12)NC(=O)[C@@H](CCCCN)NC(=O)[C@@H](CC(C)C)NC(=O)[C@@H](CC(C)C)NC(=O)[C@@H](CCCCN)NC(=O)[C@@H](CCCCN)NC(=O)[C@H](N)C(C)C)C(C)C)C(N)=O  MIC (24 h, 37 °C, Mueller-Hinton broth, human serum 10%): 8 µM
CC[C@H](C)[C@H](NC(=O)[C@H](CC(C)C)NC(=O)[C@H](CCCNC(=N)N)NC(=O)CNC(=O)CNC(=O)[C@H](CCCCN)NC(=O)[C@H](CCCNC(=N)N)NC(=O)[C@H](CC(C)C)NC(=O)[C@H](CC(C)C)NC(=O)[C@H](CCCNC(=N)N)NC(=O)[C@@H](NC(=O)[C@H](CC(C)C)NC(=O)[C@@H](N)CO)[C@@H](C)O)C(=O)NCC(=O)N[C@@H](Cc1c[nH]c2ccccc12)C(=O)N[C@@H](CCCNC(=N)N)C(=O)N[C@@H](Cc1c[nH]c2ccccc12)C(=O)N[C@@H](CCC(=O)O)C(=O)N[C@@H](CCCCN)C(=O)N[C@H](C(=O)N[C@@H](CCCNC(=N)N)C(=O)N[C@@H](CC(N)=O)C(=O)N[C@@H](Cc1c[nH]c2ccccc12)C(=O)N[C@H](C(=O)N[C@@H](CCCNC(=N)N)C(=O)N[C@@H](CCCNC(=N)N)C(=O)N[C@H](C(=O)N[C@H](C(=O)N[C@@H](CCC(=O)O)C(=O)N[C@@H](CCCCN)C(=O)N[C@@H](CCCNC(=N)N)C(=O)N[C@@H](CCCCN)C(=O)N1CCC[C@H]1C(=O)N[C@@H](CC(N)=O)C(=O)N[C@@H](CCCCN)C(=O)O)[C@@H](C)CC)[C@@H](C)CC)[C@@H](C)CC)[C@@H](C)O  MIC (broth microdilution; ATCC 25922, Mueller-Hinton broth; 16 to 20 h, 37 °C): 8.79 µg/mL
CC1(C)C(NC(=O)C(=NOC2(C(=O)O)CC2)c2csc(N)n2)C(=O)N1OS(=O)(=O)O (stereo not shown)  MIC (ATCC 2469, NDM-positive; compound alone): 0.5 µg/mL
CC[C@H](C)[C@H](NC(=O)[C@@H](CCCNC(=N)N)NC(=O)[C@H](CCCNC(=N)N)NC(=O)[C@@H]1CCCN1C(=O)[C@@H]1CCCN1C(=O)[C@H](CCCNC(=N)N)NC(=O)[C@@H]1CCCN1C(=O)[C@H](CCCNC(=N)N)NC(=O)[C@@H]1CCCN1C(=O)[C@H](CC(C)C)NC(=O)[C@H](Cc1ccc(O)cc1)NC(=O)[C@@H]1CCCN1C(=O)[C@@H]1CCCN1C(=O)[C@H](CCCCN)NC(=O)[C@H](Cc1c[nH]c2ccccc12)NC(=O)[C@@H](N)C(C)C)C(=O)N[C@@H](Cc1ccc(O)cc1)C(=O)N[C@@H](CC(N)=O)C(=O)N[C@H](CCCNC(=N)N)C(N)=O  MIC (broth microdilution; MC4100; 18 h, 37 °C, 25% MHB2): 8 µg/mL
CC[C@H](C)[C@H](NC(=O)[C@H](CCCCN)NC(=O)[C@H](CCCNC(=N)N)NC(=O)[C@H](Cc1c[nH]c2ccccc12)NC(=O)[C@@H](NC(=O)[C@H](CC(N)=O)NC(=O)[C@H](CCCNC(=N)N)NC(=O)[C@@H](NC(=O)[C@H](CCCNC(=N)N)NC(=O)[C@H](CC(N)=O)NC(=O)[C@H](CCCNC(=N)N)NC(=O)[C@H](CC(C)C)NC(=O)[C@H](CCCNC(=N)N)NC(=O)[C@H](CCCNC(=N)N)NC(=O)[C@H](Cc1ccccc1)NC(=O)[C@H](CCCNC(=N)N)NC(=O)CN)[C@@H](C)CC)[C@@H](C)CC)C(=O)NCC(=O)N1CCC[C@H]1C(=O)N[C@H](C(=O)N[C@@H](C)C(=O)NCC(=O)N1CCC[C@H]1C(=O)N[C@@H](CC(C)C)C(=O)N[C@H](C(=O)N[C@@H](CO)C(=O)N[C@@H](CCCNC(=N)N)C(=O)N[C@@H](Cc1ccccc1)C(=O)NCC(=O)O)[C@@H](C)CC)[C@@H](C)CC  MIC (CLSI agar dilution; ATCC 25922; 20 h, 37 °C): 16 µg/mL
CC(C)C[C@@H](NC(=O)[C@H](NC(=O)[C@@H](CCCCN)NC(=O)[C@@H](CCCCN)NC(=O)[C@@H](CC(C)C)NC(=O)[C@@H](Cc1c[nH]c2ccccc12)NC(=O)[C@@H](CCCCN)NC(=O)[C@@H](Cc1c[nH]c2ccccc12)NC(=O)[C@@H](CC(C)C)NC(=O)[C@@H](CCCCN)NC(=O)[C@@H](CCCCN)NC(=O)[C@H](N)C(C)C)C(C)C)C(N)=O  MIC (24 h, 37 °C, Mueller-Hinton broth, MgCl2 1 mM): 8 µM
CO/N=C(\C(=O)N[C@@H]1C(=O)N2C(C(=O)O)=C(COC(N)=O)CS[C@H]12)c1ccco1  MIC (25922, Mueller-Hinton broth; 18 to 24 h, 37 °C): 2 µg/mL
CC[C@H](C)[C@H](NC(=O)[C@@H](CCCNC(=N)N)NC(=O)[C@H](CCCNC(=N)N)NC(=O)[C@@H]1CCCN1C(=O)[C@@H]1CCCN1C(=O)[C@H](CCCNC(=N)N)NC(=O)[C@@H]1CCCN1C(=O)[C@H](CCCNC(=N)N)NC(=O)[C@@H]1CCCN1C(=O)[C@H](CC(C)C)NC(=O)[C@H](Cc1ccccc1)NC(=O)[C@@H]1CCCN1C(=O)[C@@H]1CCCN1C(=O)[C@H](CCCCN)NC(=O)[C@H](CC(=O)O)NC(=O)[C@@H](N)C(C)C)C(=O)N[C@@H](Cc1ccc(O)cc1)C(=O)N[C@@H](CC(N)=O)C(=O)N[C@H](CCCNC(=N)N)C(N)=O  MIC (broth microdilution; ATCC 25922; 18 h, 37 °C, 25% MHB2): 32 µg/mL
CC(C)Oc1c(NC(=O)c2ccc(NC(=O)C(CC(N)=O)NC(=O)c3cc(F)c(N=Nc4c(F)cccc4F)c(F)c3)cc2)ccc(C(=O)NN=Cc2ccc(C(=O)O)cc2)c1O (stereo not shown)  MIC (BW25113; after 1 h irradiation at 450 nm): > 6.4 µg/mL
CC[C@H](C)[C@H](NC(=O)[C@H](CCCNC(=N)N)NC(=O)[C@H](CCCCN)NC(=O)[C@H](CC(C)C)NC(=O)[C@H](CC(C)C)NC(=O)CNC(=O)CCCCCNC(=O)CCCC[C@@H]1SC[C@@H]2NC(=O)N[C@@H]21)C(=O)N[C@@H](CCCCN)C(=O)N[C@H](C(=O)N[C@@H](CC(C)C)C(=O)N[C@@H](CC(C)C)C(N)=O)[C@@H](C)O  MIC (broth microdilution; M/14072, Mueller-Hinton broth): 20 µM
CC[C@H](C)[C@H](NC(=O)[C@@H](CCCNC(=N)N)NC(=O)[C@H](CCCNC(=N)N)NC(=O)[C@@H]1CCCN1C(=O)[C@@H]1CCCN1C(=O)[C@H](CCCNC(=N)N)NC(=O)[C@@H]1CCCN1C(=O)[C@H](CCCNC(=N)N)NC(=O)[C@@H]1CCCN1C(=O)[C@@H](NC(=O)[C@H](Cc1ccc(O)cc1)NC(=O)[C@@H]1CCCN1C(=O)[C@@H]1CCCN1C(=O)[C@H](CCCCN)NC(=O)[C@H](CC(=O)O)NC(=O)[C@@H](N)C(C)C)C(C)(C)C)C(=O)N[C@@H](Cc1ccc(O)cc1)C(=O)N[C@@H](CC(N)=O)C(=O)N[C@H](CCCNC(=N)N)C(N)=O  MIC (broth microdilution; BW25113; 18 h, 37 °C, 25% MHB2): 16 µg/mL
CC(C)C[C@@H]1NC(=O)[C@H](CCCCN)NC(=O)CNC(=O)[C@H]2CCCN2C(=O)[C@H](CCCCN)NC(=O)[C@H](CC(C)C)NC(=O)[C@H](CCCCN)NC(=O)[C@H](CC(C)C)NC(=O)[C@H](CCCCN)NC(=O)C(N)CCC=CCCC(C(N)=O)NC(=O)[C@H](CCCCN)NC(=O)[C@H](CC(C)C)NC(=O)[C@H](CCCCN)NC1=O (stereo partly shown)  MIC (broth microdilution; ATCC 25922, Mueller-Hinton broth; 18 h, 37 °C): 8 µM

For quick reference, copied from above:
CC(C)C[C@@H](NC(=O)[C@H](NC(=O)[C@@H](CCCCN)NC(=O)[C@@H](CCCCN)NC(=O)[C@@H](CC(C)C)NC(=O)[C@@H](Cc1c[nH]c2ccccc12)NC(=O)[C@@H](CCCCN)NC(=O)[C@@H](Cc1c[nH]c2ccccc12)NC(=O)[C@@H](CC(C)C)NC(=O)[C@@H](CCCCN)NC(=O)[C@@H](CCCCN)NC(=O)[C@H](N)C(C)C)C(C)C)C(N)=O  MIC (24 h, 37 °C, Mueller-Hinton broth, MgCl2 1 mM): 8 µM
CO/N=C(\C(=O)N[C@@H]1C(=O)N2C(C(=O)O)=C(COC(N)=O)CS[C@H]12)c1ccco1  MIC (25922, Mueller-Hinton broth; 18 to 24 h, 37 °C): 2 µg/mL
